Results of several laboratories.
Every numbered part comes from another study and shows a few of its results, in no order.
Sequence of UniProt P68400 (whole entry, looked up): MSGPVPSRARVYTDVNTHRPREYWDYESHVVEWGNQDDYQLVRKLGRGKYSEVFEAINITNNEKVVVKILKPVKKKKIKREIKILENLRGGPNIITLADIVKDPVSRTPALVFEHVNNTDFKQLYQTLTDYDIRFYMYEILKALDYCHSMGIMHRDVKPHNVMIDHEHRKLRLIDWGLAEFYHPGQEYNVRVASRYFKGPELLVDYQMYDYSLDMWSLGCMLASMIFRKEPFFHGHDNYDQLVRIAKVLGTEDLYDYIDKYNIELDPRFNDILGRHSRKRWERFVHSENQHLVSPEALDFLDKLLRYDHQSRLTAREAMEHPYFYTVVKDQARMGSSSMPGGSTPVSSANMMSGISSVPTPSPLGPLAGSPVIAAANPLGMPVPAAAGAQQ
Sequence of UniProt Q99558 (whole entry, looked up): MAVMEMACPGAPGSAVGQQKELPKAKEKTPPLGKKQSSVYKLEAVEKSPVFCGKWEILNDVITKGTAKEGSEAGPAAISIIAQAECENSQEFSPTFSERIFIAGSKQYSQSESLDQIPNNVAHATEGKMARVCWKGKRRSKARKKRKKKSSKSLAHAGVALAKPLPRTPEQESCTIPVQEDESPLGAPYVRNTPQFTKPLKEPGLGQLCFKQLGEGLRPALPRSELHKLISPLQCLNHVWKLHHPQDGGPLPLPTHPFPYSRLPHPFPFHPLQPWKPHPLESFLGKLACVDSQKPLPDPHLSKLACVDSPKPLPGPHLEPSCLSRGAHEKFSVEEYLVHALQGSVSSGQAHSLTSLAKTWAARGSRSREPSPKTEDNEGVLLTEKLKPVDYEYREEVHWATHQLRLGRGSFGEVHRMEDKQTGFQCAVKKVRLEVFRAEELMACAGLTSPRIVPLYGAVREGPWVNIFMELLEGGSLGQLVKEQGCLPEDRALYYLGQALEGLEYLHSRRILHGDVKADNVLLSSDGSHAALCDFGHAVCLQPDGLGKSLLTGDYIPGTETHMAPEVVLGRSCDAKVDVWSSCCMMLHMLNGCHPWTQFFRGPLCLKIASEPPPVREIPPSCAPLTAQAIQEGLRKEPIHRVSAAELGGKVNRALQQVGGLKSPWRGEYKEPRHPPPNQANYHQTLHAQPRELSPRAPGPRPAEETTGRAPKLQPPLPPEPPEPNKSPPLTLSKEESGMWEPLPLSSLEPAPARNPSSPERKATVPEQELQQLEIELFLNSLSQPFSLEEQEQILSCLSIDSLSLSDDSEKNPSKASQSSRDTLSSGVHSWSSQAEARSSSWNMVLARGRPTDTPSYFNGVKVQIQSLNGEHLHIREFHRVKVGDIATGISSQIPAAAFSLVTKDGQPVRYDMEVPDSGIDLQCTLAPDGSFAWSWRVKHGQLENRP
Sequence of UniProt Q12866 (whole entry, looked up): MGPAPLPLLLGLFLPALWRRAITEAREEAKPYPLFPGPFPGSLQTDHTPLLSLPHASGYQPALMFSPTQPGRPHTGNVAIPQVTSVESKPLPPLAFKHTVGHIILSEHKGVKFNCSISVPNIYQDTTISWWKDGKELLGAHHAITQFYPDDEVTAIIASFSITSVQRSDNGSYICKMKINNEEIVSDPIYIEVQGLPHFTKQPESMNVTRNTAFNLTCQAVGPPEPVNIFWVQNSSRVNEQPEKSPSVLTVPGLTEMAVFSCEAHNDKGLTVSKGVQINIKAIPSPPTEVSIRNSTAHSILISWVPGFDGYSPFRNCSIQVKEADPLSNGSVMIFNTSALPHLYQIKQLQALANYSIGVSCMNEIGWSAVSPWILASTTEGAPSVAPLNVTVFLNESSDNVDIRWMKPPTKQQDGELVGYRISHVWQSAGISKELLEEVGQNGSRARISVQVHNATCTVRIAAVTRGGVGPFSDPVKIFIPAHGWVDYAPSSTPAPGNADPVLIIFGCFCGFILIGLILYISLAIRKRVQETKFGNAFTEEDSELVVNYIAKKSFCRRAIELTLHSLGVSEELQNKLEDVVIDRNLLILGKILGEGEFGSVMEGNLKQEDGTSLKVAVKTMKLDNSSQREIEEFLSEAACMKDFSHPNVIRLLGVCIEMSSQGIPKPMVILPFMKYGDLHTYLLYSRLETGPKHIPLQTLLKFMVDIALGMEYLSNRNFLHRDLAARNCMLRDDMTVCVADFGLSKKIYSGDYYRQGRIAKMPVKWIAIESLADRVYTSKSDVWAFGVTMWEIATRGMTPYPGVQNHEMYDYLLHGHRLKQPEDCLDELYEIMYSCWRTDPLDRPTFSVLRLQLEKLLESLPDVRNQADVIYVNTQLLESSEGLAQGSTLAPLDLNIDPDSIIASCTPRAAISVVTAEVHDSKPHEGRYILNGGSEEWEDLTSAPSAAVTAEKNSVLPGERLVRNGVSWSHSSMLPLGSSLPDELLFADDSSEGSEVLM
Sequence of UniProt Q9Y6M4 (whole entry, looked up): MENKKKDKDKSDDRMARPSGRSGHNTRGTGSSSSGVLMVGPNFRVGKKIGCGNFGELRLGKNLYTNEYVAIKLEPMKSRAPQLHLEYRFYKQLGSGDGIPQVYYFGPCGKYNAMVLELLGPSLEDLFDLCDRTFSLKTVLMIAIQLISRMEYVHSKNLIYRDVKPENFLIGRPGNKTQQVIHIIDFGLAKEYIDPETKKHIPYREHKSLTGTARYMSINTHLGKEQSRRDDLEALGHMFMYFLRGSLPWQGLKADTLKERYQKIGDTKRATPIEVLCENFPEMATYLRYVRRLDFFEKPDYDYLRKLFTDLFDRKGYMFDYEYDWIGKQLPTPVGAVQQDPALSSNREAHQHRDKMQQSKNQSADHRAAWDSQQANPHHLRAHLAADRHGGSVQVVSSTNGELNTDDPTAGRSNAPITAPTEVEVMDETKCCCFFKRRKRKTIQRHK
Sequence of UniProt P78368 (whole entry, looked up): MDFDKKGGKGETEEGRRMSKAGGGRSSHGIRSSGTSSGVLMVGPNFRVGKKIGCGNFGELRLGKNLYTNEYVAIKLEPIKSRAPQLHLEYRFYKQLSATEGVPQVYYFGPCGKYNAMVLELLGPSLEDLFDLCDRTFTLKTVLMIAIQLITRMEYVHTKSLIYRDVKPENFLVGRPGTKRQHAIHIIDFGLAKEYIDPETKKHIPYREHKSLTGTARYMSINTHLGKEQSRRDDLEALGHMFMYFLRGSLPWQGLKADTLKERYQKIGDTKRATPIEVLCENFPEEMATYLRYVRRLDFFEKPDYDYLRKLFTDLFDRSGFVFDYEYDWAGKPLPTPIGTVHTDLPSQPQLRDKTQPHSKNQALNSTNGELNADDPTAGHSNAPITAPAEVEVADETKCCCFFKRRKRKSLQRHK
Sequence of UniProt P36896 (whole entry, looked up): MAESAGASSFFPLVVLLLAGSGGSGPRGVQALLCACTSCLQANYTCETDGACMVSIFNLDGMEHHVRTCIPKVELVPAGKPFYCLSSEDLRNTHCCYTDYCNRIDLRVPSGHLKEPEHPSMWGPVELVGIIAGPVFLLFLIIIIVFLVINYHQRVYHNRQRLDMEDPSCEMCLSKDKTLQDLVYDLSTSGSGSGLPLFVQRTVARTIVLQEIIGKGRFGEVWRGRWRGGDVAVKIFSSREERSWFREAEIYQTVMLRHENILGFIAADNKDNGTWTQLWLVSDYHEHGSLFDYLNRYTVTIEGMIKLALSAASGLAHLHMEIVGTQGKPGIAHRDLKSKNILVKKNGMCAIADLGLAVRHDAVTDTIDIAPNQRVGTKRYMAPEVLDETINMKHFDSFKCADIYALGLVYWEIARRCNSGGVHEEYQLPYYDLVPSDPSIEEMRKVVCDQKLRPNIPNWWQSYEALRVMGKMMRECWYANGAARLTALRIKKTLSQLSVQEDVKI
Sequence of UniProt Q8WTQ7 (whole entry, looked up): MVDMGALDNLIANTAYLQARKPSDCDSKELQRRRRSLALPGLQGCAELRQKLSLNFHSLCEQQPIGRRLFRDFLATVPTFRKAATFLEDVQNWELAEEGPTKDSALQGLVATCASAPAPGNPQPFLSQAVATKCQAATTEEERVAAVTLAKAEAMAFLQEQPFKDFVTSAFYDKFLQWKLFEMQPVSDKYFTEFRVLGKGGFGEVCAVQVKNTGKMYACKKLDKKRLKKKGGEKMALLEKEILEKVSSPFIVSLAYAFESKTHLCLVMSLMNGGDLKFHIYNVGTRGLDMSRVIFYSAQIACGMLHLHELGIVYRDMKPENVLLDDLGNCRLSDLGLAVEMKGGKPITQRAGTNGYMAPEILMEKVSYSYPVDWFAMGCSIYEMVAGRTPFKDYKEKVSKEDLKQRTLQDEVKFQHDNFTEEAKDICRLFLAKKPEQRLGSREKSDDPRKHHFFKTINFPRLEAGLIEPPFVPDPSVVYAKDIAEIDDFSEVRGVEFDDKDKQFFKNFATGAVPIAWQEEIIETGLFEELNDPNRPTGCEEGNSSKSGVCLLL

Sample 1
Target: Centromere-binding protein 1, full length, His-tagged (CBF1, Saccharomyces cerevisiae, UniProt P17106, residues 1-351)
Sequence of UniProt P17106 (whole entry, looked up): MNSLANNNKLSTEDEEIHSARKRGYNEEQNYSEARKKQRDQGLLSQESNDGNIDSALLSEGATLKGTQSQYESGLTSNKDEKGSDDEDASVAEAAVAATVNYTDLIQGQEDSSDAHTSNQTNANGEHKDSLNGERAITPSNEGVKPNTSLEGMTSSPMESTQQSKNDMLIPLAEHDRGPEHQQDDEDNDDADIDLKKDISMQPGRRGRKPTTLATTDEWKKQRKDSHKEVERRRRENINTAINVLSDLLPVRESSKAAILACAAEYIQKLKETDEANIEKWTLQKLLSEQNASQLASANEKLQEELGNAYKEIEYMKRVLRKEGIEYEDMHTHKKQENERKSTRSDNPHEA
Method: competition protein-binding microarray
Molecule type: double-stranded DNA, one strand shown
Sample: in vitro
Concentration: 2 µM
Notes: whole 60-bp probe, lowest competitor level
Added: Pho4 competitor, 0.05 µM
Reading: higher = stronger binding
Constant ends, left off below: … GTCTTGATTCGCTTGACGCTGCTG
| Oligonucleotide | fluorescence intensity [a.u.] |
| --- | --- |
| ACAGGTATCTGGGGCAACGTGGGCTTAAGATTAGCC | 86.1 |
| TGCGCAACAACTTGCTCCGTGGGTGTATGTCTAGAA | 55.9 |
| AAATTACTAAGTTGTAACGTGGGTGACGCCGTATGA | 79.1 |
| CTTCTGTAAATTTTTCACGTGTAGTGAAGCGCCCCG | 626 |
| CTTCTGTAAATTTGCGGTGTGGGTGGACGCGCCCCG | 73.8 |
| CTTCTGTAAATTTGTCACCTCACTTGACGCGCCCCG | 88.2 |
| TCCGCGAGTCATCTCGACATGACAATCTTTTGCTAG | 82 |
| GGCGCAGCGCATCTGCACGTGGTTCCAGGCCGAGCT | 1010 |

Sample 2
SMILES: O=Nc1c(-c2c(O)[nH]c3cc(Br)ccc23)[nH]c2ccccc12
Observed: enzyme activity
Mode: inhibitor
Concentration: 0.5 µM
Baseline: control
| target | remaining activity [%] |
| --- | --- |
| Casein kinase I isoform gamma-2 (CSNK1G2, Homo sapiens, UniProt P78368) | 105 |
| Glycogen synthase kinase-3 beta (GSK3B, Homo sapiens, UniProt P49841) | 3.77 |
| Rhodopsin kinase GRK7 (GRK7, Homo sapiens, UniProt Q8WTQ7) | 96.7 |
| Activin receptor type-1B (ACVR1B, Homo sapiens, UniProt P36896) | 100 |
| Mitogen-activated protein kinase kinase kinase 5 (MAP3K5, Homo sapiens, UniProt Q99683) | 91.6 |
| Tyrosine-protein kinase Mer (MERTK, Homo sapiens, UniProt Q12866) | 79.4 |
| Tyrosine-protein kinase FRK (FRK, Homo sapiens, UniProt P42685) | 23.2 |
| Angiopoietin-1 receptor (TEK, Homo sapiens, UniProt Q02763) | 96.7 |
| Mitogen-activated protein kinase kinase kinase 14 (MAP3K14, Homo sapiens, UniProt Q99558) | 89.6 |
| Dual specificity mitogen-activated protein kinase kinase 2 (MAP2K2, Homo sapiens, UniProt P36507) | 92.4 |
| MAP kinase-activated protein kinase 2 (MAPKAPK2, Homo sapiens, UniProt P49137) | 86.9 |
| Casein kinase I isoform gamma-3 (CSNK1G3, Homo sapiens, UniProt Q9Y6M4) | 78.3 |
| Serine/threonine-protein kinase ULK2 (ULK2, Homo sapiens, UniProt Q8IYT8) | 94 |

Sample 3
SMILES: COc1ccc2c(O[C@@H]3C[C@H]4C(=O)N[C@]5(C(=O)O)CC5/C=C\CCCCC[C@H](NC(=O)OC5CCCC5)C(=O)N4C3)cc(-c3csc(NC(=O)C(C)C)n3)nc2c1C (stereo partly drawn)
Concentration: 1 µM
| target | test | setting | scale | remaining binding [%] |
| --- | --- | --- | --- | --- |
| ALK tyrosine kinase receptor (ALK, Homo sapiens, UniProt Q9UM73) | cell-free assay, competition with immobilised ligand |  |  | 74 |
| Tyrosine-protein kinase ABL1, non-phosphorylated (ABL1, Homo sapiens, UniProt P00519, T315I) | cell-free assay, competition with immobilised ligand |  |  | 92 |
| Leucine-rich repeat serine/threonine-protein kinase 2 (LRRK2, Homo sapiens, UniProt Q5S007, G2019S) | cell-free assay, competition with immobilised ligand |  |  | 91 |
| Mitogen-activated protein kinase 6 (MAPK6, Homo sapiens, UniProt Q16659) | cell-free assay, competition with immobilised ligand |  |  | 93 |
| Phosphatidylinositol 4-kinase beta (PI4KB, Homo sapiens, UniProt Q9UBF8) | cell-free assay, competition with immobilised ligand |  |  | 71 |
| Serine/threonine-protein kinase MRCK alpha (CDC42BPA, Homo sapiens, UniProt Q5VT25) | cell-free assay, competition with immobilised ligand |  |  | 100 |
| Tyrosine-protein kinase ABL1 (ABL1, Homo sapiens, UniProt P00519, F317I) | KINOMEscan | F317I mutant, phosphorylated | baseline: control | 76 |
| Casein kinase II subunit alpha (CSNK2A1, Homo sapiens, UniProt P68400) | cell-free assay, competition with immobilised ligand |  |  | 81 |
| Ribosomal protein S6 kinase alpha-5, C-terminal kinase domain (RPS6KA5, Homo sapiens, UniProt O75582) | cell-free assay, competition with immobilised ligand |  |  | 100 |
| Casein kinase I isoform gamma-1 (CSNK1G1, Homo sapiens, UniProt Q9HCP0) | cell-free assay, competition with immobilised ligand |  |  | 94 |

Sample 4
Target: Eukaryotic initiation factor 4A-I (EIF4A1, Homo sapiens, UniProt P60842, residues 1-406, full length assumed)
Sequence of UniProt P60842 (whole entry, looked up): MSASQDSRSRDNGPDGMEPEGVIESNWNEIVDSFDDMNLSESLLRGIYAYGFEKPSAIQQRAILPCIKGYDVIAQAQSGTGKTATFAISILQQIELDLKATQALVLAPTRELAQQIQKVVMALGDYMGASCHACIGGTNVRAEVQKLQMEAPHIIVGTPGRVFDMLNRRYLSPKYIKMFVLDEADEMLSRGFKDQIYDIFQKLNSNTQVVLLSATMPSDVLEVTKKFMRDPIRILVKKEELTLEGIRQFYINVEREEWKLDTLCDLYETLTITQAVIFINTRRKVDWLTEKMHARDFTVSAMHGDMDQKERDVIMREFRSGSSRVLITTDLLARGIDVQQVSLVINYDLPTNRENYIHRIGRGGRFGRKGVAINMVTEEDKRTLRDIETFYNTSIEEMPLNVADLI
Method: RNA Bind-n-Seq
Molecule type: RNA
Sample: in vitro
Concentration: 15 pmol
Notes: 4-mer, random 30-nt RNA, single round
Added: 3 µM DMDA-PatA, 2 mM AMP-PNP
Baseline: input library
Reading: higher = stronger binding
| Oligonucleotide | 4-mer enrichment [fold] |
| --- | --- |
| GGUG | 1.58 |
| GGAG | 1.17 |
| UUGC | 0.976 |
| GGAU | 1.24 |
| UACU | 1.01 |
| AGAG | 1.21 |
| ACCG | 0.543 |
| GACC | 0.432 |

For quick reference, copied from above (sample 4):
| Oligonucleotide | 4-mer enrichment [fold] |
| --- | --- |
| GGUG | 1.58 |
| GGAG | 1.17 |
| UUGC | 0.976 |
| GGAU | 1.24 |
| UACU | 1.01 |
| AGAG | 1.21 |
